Published values of several laboratories.
Lines come from different studies, so protocols differ.
Target: Muscarinic acetylcholine receptor M1 (CHRM1, Homo sapiens, UniProt P11229)
Sequence (P11229 1-460, as in one of the studies): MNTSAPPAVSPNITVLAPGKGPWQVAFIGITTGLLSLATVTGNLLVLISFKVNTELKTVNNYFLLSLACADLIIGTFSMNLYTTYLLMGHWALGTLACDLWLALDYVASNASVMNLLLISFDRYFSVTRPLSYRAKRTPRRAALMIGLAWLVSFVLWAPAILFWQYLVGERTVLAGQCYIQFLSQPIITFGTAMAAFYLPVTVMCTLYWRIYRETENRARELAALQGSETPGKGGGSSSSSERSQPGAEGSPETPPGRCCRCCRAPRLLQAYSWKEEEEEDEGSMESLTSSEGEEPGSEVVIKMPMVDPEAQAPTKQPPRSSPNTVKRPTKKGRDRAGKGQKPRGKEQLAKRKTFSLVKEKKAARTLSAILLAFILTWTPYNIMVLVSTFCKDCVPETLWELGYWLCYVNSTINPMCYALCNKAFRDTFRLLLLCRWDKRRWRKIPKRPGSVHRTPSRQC

Cc1cc(-c2ccc3ccccc3c2)nnc1NCCN1CCN(C)CC1  antagonist activity (antagonist; concentration not given): negative
CN[C@@H]1[C@H](O)[C@H](NC)[C@H]2O[C@]3(O)[C@H](O[C@@H]2[C@H]1O)O[C@H](C)C[C@H]3NC(=O)Cc1ccc(Cl)cn1  inhibition (ligand displacement, radioligand; 10 µM): 1%
Cc1sc2c(c1C)C(c1ccc(Cl)cc1)=NC(CC(=O)OC(C)(C)C)c1nnc(C)n1-2 (centres unmarked)  inhibition (specific binding; 1 µM): -14%
Cc1cc(Nc2nc(C[C@@]3(C(=O)O)CCN(Cc4cccc(Cl)c4F)[C@H](C)C3)cc(C)c2F)[nH]n1  activation (agonist; 10 µM): 0.01%
CCO[C@H]1[C@H](O)[C@@H](N)[C@@H](O[C@H]2[C@H](O[C@@H]3O[C@H](CO)[C@@H](O[C@H]4O[C@@H](CN)[C@@H](O)[C@H](O)[C@H]4N)[C@H]3O)[C@@H](O)[C@H](N)C[C@@H]2N)O[C@@H]1CO  specific binding (radioligand binding; 10 µM, 1% DMSO): 5%
C/C(=N\OCCCN1CCCCC1)c1ccc(C(F)(F)F)cc1  activation (agonist, IP-One; 10 µM): 0.38%
CCc1nnc(-c2c(OC)cc(-c3cnc4cc(-c5cnn(C)c5)ccn34)cc2OC)o1  remaining binding (antagonist radioligand, radioligand binding; 10 µM, SafetyScreen44 M1 mean; lower = stronger displacement): 96.2%
N[C@H](C(=O)N1CCCC1)C1CCN(c2nccc3c(-c4ncc(Cl)cc4Cl)cccc23)CC1  response (functional response, agonist; 10 µM): 4%

Repeated from above:
Cc1cc(-c2ccc3ccccc3c2)nnc1NCCN1CCN(C)CC1  antagonist activity (antagonist; concentration not given): negative
